# Results pooled from the literature.
# Each numbered part is a random draw from the data of one study; scales do not carry over between parts.
# Sequence of UniProt Q9UJQ4 (whole entry, looked up): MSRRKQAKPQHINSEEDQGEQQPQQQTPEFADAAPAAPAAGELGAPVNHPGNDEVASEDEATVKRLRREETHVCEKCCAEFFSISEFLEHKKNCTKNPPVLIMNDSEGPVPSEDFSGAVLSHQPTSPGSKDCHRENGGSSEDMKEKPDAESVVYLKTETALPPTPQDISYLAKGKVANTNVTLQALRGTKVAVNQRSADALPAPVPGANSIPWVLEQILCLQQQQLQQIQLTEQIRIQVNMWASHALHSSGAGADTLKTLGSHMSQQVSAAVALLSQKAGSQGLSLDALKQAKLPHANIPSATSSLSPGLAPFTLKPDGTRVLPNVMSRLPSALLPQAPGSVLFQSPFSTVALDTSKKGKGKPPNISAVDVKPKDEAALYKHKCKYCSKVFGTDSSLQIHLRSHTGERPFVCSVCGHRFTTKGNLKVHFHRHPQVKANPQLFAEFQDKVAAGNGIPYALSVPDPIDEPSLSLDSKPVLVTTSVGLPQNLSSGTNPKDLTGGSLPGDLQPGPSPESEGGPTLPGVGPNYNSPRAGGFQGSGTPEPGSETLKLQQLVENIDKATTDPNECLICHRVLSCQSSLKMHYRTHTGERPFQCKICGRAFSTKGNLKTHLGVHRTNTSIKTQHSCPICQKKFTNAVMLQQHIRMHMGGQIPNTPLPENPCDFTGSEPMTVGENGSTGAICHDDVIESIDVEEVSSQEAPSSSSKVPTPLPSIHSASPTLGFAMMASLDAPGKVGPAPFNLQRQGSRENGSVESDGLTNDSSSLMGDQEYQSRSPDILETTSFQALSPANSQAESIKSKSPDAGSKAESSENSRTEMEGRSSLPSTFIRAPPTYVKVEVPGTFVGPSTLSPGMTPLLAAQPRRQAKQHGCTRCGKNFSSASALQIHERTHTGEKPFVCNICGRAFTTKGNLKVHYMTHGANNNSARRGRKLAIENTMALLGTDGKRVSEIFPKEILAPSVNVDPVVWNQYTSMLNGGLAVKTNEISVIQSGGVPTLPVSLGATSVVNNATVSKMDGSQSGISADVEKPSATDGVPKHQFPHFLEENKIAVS

# Series 1
# Target: TATA-box-binding protein 1 (TBP1, Arabidopsis thaliana, UniProt P28147, residues 1-200, full length assumed)
# Method: protein-binding microarray
# Molecule type: double-stranded DNA, one strand shown
# Matrix: in vitro
# Tested at: not given
# Notes: k-mer, scored over probes, only values ≥0.25
# Reading: higher = stronger binding
# Target sequence (chain): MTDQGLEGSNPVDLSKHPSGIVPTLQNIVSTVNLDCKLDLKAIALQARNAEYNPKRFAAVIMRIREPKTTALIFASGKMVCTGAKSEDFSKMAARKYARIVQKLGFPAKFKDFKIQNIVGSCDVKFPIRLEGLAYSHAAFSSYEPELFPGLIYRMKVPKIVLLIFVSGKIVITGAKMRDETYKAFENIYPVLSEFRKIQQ
Sequence,E-score
ATATCTA,0.349
CTTAAAC,0.253
ATAACAA,0.279

# Series 2
# Target: Interferon regulatory factor 7, full length, phosphomimetic (IRF7, Homo sapiens, UniProt Q92985, residues 1-503, S471D/S472D/S475D/S476D/S477D/S483D/S484D/S487D)
# Sequence of UniProt Q92985 (whole entry, unmodified, looked up): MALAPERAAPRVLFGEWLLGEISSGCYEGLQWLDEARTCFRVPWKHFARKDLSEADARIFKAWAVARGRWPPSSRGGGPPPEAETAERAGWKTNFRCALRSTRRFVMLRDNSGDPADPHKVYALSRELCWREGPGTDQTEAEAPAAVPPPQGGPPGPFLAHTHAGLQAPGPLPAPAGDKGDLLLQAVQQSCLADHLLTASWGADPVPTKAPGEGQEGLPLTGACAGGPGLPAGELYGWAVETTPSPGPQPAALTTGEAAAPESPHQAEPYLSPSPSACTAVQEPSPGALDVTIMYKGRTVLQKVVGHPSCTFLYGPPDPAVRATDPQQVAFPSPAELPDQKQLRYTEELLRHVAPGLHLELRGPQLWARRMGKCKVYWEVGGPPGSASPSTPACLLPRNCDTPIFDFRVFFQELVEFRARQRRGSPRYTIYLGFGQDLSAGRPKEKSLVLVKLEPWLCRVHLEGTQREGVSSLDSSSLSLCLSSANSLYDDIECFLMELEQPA
# Method: protein-binding microarray
# Molecule type: double-stranded DNA, one strand shown
# Matrix: in vitro
# Tested at: 2200 nM top
# Notes: 60-bp whole probe
# Added: salmon DNA 0.4 mg/ml
# Baseline: random background probes
# Reading: higher = stronger binding
Sequence,fitted relative affinity
GCCTAGCACTTAGAACTGTGGTTTCGATTAGTGCTAGTCTTGATTCGCTTGACGCTGCTG,3.31 z-score
GCCTAGCACAATCTTTTCACTTTCTTTAAGTGCTAGGTCTTGATTCGCTTGACGCTGCTG,3.44 z-score
GCCTAGCACGACGAACTGGGGTTTCCAGACGTGCTAGTCTTGATTCGCTTGACGCTGCTG,-0.0667 z-score

# Single results of other studies
Substance,target,assay,test system,setting,scale,endpoint,value
ACTTTCGG,"Histone acetyltransferase KAT6A, winged helix 1, GST fusion (KAT6A, Homo sapiens, UniProt Q92794, residues 1-85)",protein binding microarray,"double-stranded DNA, one strand shown, in vitro","not given, 8-mer, flanks averaged, mean of 2 arrays, mostly near background","baseline: not given, higher = stronger binding",E-score,-0.171
GACGATGC,"Sal-like protein 4, full length isoform A (SALL4, Homo sapiens, UniProt Q9UJQ4, residues 1-1053)",universal PBM,"double-stranded DNA, one strand shown, in vitro","600 nM, 8-mer, flanks averaged, mean of replicates",higher = stronger binding,E-score,-0.162
"PhoQ, residues 284 288 289 292 302 303 GNNTDL","PhoP, residues 12 14 15 18 19 NMSSL (Escherichia coli, UniProt P23836)","Sort-seq, refers to: YFP reporter",E. coli,"PhoQ-PhoP variant library, added: 10 µM Mg2+","baseline: high Mg2+ state, higher = stronger signaling",fold induction,0.394

# A few entries again (single results of other studies):
Substance,target,assay,test system,setting,scale,endpoint,value
"PhoQ, residues 284 288 289 292 302 303 GNNTDL","PhoP, residues 12 14 15 18 19 NMSSL (Escherichia coli, UniProt P23836)","Sort-seq, refers to: YFP reporter",E. coli,"PhoQ-PhoP variant library, added: 10 µM Mg2+","baseline: high Mg2+ state, higher = stronger signaling",fold induction,0.394
